# Assay results pooled from the literature.
# Protocols differ between the studies behind these lines. ± gives the spread as reported.
# RBD, SARS-CoV-2, spike, with ACE2: Angiotensin-converting enzyme 2, with SARS-CoV-2 spike RBD (ACE2, Homo sapiens, UniProt Q9BYF1)
# Sequence of UniProt Q9BYF1 (whole entry, looked up): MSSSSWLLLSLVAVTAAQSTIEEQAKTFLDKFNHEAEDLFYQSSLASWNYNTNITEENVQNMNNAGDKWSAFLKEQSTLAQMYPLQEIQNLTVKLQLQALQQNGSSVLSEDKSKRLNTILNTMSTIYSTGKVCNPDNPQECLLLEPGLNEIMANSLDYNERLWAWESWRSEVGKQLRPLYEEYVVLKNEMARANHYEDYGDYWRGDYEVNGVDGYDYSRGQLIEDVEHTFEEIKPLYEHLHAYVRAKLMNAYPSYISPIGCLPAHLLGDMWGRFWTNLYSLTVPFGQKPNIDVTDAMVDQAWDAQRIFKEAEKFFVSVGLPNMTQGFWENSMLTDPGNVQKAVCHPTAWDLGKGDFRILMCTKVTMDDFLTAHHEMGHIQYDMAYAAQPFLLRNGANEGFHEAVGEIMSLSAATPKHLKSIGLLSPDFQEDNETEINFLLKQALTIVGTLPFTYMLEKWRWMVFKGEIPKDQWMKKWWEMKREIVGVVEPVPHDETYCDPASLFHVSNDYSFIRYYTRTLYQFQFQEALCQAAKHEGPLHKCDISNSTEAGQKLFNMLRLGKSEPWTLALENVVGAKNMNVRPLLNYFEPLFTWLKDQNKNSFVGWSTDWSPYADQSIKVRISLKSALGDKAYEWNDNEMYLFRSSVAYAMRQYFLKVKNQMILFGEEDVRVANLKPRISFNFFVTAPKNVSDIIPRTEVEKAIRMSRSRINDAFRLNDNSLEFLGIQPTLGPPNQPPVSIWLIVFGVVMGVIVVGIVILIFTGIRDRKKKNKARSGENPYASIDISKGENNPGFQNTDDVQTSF
# rep main protease: Replicase polyprotein 1ab, main protease (rep, Severe acute respiratory syndrome coronavirus 2, UniProt P0DTD1)
# plsY3: Glycerol-3-phosphate acyltransferase 3 (plsY3, Bacillus anthracis, UniProt Q81Y92)
# Sequence of UniProt Q81Y92 (whole entry, looked up): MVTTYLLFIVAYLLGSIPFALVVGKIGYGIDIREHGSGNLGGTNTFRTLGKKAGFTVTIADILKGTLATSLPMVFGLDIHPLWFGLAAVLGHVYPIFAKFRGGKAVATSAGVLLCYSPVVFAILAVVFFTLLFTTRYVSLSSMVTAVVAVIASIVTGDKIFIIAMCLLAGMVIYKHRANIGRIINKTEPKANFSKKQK
# Sequence of UniProt Q07001 (whole entry, looked up): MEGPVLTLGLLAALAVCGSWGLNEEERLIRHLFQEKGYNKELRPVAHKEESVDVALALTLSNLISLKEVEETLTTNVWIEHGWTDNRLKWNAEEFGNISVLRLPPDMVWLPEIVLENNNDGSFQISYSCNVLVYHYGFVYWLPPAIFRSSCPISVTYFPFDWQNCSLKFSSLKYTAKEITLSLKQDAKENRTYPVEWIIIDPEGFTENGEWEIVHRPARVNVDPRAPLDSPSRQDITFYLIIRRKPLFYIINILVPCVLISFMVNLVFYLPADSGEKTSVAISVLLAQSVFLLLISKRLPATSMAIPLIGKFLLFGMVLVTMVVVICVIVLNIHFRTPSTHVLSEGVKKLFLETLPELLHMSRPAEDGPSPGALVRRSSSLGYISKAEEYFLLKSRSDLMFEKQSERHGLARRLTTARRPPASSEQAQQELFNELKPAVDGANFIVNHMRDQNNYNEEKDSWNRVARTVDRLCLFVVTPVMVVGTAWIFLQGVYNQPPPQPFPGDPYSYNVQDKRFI
# Sequence of UniProt Q5XXP4 (whole entry, looked up): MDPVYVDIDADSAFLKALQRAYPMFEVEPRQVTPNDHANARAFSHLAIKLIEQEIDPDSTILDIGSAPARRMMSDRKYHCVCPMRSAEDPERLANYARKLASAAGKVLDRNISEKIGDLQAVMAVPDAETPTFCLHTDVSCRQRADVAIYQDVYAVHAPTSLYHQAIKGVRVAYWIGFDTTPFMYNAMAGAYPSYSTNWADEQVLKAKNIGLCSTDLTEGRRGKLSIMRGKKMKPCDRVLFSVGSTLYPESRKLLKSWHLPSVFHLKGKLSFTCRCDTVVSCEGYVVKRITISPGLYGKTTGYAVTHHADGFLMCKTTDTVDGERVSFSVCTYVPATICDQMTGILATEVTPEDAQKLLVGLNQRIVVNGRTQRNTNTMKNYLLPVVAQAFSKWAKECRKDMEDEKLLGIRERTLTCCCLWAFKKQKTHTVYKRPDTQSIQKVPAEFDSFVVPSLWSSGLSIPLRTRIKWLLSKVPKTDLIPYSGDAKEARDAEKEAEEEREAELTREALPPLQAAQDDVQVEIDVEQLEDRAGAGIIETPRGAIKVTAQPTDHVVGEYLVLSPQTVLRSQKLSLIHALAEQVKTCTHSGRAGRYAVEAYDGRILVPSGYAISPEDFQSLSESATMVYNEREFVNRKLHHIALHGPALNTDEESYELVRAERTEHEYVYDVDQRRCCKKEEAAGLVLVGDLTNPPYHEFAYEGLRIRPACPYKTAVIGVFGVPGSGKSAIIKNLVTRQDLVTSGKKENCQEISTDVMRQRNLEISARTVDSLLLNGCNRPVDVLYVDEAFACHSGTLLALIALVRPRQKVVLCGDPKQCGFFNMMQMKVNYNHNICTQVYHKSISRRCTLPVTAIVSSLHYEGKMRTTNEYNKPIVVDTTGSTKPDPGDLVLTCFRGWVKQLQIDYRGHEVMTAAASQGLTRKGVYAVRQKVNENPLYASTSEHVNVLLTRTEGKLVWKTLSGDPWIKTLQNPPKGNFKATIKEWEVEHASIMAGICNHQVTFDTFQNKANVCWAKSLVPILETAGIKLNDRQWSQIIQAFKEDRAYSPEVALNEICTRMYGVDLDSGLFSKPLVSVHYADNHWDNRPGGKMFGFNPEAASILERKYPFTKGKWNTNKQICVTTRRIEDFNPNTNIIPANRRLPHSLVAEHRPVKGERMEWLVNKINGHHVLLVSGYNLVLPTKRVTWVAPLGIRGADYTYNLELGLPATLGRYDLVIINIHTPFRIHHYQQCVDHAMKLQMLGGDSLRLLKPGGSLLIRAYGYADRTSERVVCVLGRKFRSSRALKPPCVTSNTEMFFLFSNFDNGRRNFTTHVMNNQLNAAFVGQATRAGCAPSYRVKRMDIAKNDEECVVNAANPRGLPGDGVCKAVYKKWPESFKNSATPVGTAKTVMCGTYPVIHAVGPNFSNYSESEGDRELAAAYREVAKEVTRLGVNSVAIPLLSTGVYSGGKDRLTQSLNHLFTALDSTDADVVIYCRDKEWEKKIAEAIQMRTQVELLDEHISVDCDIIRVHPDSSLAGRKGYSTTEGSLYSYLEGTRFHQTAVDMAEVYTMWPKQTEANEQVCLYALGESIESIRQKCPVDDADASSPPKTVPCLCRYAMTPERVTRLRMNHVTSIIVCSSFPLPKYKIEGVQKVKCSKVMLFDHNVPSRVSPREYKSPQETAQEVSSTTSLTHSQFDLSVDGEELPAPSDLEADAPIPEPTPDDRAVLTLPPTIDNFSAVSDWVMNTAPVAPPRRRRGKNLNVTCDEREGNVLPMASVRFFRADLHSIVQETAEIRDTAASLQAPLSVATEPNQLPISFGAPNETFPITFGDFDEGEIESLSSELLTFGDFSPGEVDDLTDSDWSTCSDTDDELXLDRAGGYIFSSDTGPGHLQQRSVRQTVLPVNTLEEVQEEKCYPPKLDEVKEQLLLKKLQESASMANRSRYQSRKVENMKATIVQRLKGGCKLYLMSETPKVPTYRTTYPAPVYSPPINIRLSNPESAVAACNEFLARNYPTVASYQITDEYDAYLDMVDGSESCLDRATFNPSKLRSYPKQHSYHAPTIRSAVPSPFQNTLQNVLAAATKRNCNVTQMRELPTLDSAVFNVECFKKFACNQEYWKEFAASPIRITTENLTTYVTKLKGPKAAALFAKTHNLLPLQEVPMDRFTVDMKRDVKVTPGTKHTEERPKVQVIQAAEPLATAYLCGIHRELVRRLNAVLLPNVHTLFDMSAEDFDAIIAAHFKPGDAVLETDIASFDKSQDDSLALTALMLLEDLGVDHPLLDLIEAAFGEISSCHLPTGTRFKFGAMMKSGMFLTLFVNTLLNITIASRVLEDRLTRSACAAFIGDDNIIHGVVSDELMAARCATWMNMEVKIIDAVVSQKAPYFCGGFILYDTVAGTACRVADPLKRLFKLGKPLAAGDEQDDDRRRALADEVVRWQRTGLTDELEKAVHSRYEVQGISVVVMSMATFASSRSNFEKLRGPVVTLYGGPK
# Sequence of UniProt P07510 (whole entry, looked up): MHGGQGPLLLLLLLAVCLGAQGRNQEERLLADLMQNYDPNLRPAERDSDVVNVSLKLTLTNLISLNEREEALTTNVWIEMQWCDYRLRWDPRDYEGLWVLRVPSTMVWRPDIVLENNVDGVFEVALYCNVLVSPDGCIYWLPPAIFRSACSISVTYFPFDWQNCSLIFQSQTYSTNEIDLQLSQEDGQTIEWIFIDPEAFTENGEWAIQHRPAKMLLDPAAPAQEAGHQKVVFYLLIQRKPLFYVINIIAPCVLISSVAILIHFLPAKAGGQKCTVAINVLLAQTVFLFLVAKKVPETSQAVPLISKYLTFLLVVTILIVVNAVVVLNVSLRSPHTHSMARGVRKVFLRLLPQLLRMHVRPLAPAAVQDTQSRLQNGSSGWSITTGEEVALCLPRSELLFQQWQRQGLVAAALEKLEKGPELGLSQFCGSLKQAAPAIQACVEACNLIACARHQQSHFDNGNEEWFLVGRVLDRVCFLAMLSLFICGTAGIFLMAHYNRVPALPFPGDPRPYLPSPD
# Sequence of UniProt P02708 (whole entry, looked up): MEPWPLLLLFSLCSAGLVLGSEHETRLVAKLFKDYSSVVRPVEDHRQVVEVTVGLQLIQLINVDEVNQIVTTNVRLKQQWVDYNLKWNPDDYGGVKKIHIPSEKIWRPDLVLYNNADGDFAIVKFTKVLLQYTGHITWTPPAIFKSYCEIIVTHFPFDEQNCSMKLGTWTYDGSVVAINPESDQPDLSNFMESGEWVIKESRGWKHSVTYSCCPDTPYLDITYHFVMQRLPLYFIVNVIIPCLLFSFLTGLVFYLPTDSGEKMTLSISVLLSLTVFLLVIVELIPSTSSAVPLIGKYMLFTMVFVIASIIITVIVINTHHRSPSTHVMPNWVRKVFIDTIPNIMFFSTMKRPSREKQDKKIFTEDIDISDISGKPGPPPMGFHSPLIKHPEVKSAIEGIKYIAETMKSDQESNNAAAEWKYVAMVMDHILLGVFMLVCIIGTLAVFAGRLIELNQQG
SMILES,tested on,test,test system,conditions,how to read,quantity,result
COc1ccc(C(O)c2[nH]c3ccc(OC)cc3c2CCNC(C)=O)cc1 (stereo not drawn),"RBD, SARS-CoV-2, spike, with ACE2","RBD binding, TR-FRET",,"100 µM, together with: RBD-d2 5 nM",,inhibition,20 to 30%
O=C1CC[C@@H](CCC(=O)N2CCCC[C@@H](C3CN(C(=O)c4cnc5n[nH]nc5c4)C3)C2)CN1,rep main protease,"enzyme activity, inhibitor",,"5 µM, run 1",,inhibition,16.5%
CCCN1CCN(c2ccc(C(=O)NC3(C(=O)NCC#N)CCCCC3)cc2)CC1,rep main protease,"reporter gene (mKate2), inhibitor",,20 µM,,inhibition,-0.576%
O=C(Cn1ccnn1)NC[C@H](NC(=O)c1cncc2ccccc12)c1ccc2ccccc2c1,rep main protease,"enzyme activity, inhibitor",,"5 µM, run 2",,inhibition,12.5%
Cc1nc(-c2ccccc2F)c(C(=O)NC(Cc2ccccc2)C(=O)C(N)=O)o1 (stereo not drawn),rep main protease,"reporter gene (Gaussia luciferase), inhibitor",,20 µM,,inhibition,0.989%
Cn1cnc(Cn2c(=O)[nH]/c(=N\c3cc4cn(C)nc4cc3Cl)n(Cc3cc(F)c(F)cc3F)c2=O)n1,,,"human, mild renal impairment","oral, 375 mg",,"dry mouth TEAE, Mild severity",12.5%
Oc1ccccc1-c1noc(-c2ccccc2O)n1,"Spike glycoprotein, receptor-binding domain (Severe acute respiratory syndrome coronavirus 2, UniProt P0DTC2)","spike RBD binding to ACE2, inhibitor, ELISA",,10 µM,,inhibition,-50.6 ± 14.9%
Cc1ccc(NC(=O)CCl)cc1N1CCOC1=O,"Polyprotein P1234, nsP2 protease domain (Chikungunya virus, UniProt Q5XXP4)","protease activity, FRET",,20 µM,,inhibition,101%
O=C(c1cc2ccc(O)cc2[nH]1)N1CC2(C1)CN(C(=O)[C@H]1CCc3n[nH]nc3C1)CCO2,rep main protease,"enzyme activity, inhibitor",,"5 µM, mean of runs",,inhibition,10.8%
Cl.O=C(O)/C=C/c1ccc(Cn2ccnc2)cc1,rep main protease,"reporter gene (mKate2), inhibitor",,20 µM,,inhibition,-0.698%
CC1(C)Cc2ccc(C(=O)N3CCCC[C@H](C4CN(C(=O)c5cncc(O)c5)C4)C3)cc2O1,rep main protease,"enzyme activity, inhibitor",,"5 µM, run 1",,inhibition,8.7%
CCCCCCCC/C=C\CCCCCCCC(=O)C(F)(F)P(=O)(O)O,plsY3,inhibitor,,200 µM,,inhibition,68%
O=C(Nc1cnccc1Cl)N1CCN(Cc2ccc3c(c2)OC(F)(F)O3)CC1,"strychnine-sensitive glycine receptor, rat",binding,,"10 µM, together with: [3H]strychnine",,inhibition,1%
CC[C@H](C)[C@H](NC(=O)[C@H](CC(C)C)NC(=O)[C@H](Cc1c[nH]c2ccccc12)NC(=O)[C@H](CCC(N)=O)NC(=O)[C@@H](NC(=O)[C@H](Cc1ccccc1)NC(=O)[C@H](C)NC(=O)[C@H](CCCCNC(=O)COCCOCCNC(=O)COCCOCCNC(=O)CC[C@H](NC(=O)CCCCCCCCCCCCCCCCCCC(=O)O)C(=O)O)NC(=O)[C@H](CCC(N)=O)NC(=O)[C@H](C)NC(=O)[C@@H](NC(=O)[C@H](CCCCN)NC(=O)[C@H](CC(=O)O)NC(=O)[C@H](CC(C)C)NC(=O)C(C)(C)NC(=O)[C@@H](NC(=O)[C@H](CO)NC(=O)[C@H](Cc1ccc(O)cc1)NC(=O)[C@H](CC(=O)O)NC(=O)[C@H](CO)NC(=O)[C@@H](NC(=O)[C@H](Cc1ccccc1)NC(=O)[C@@H](NC(=O)CNC(=O)[C@H](CCC(=O)O)NC(=O)C(C)(C)NC(=O)[C@@H](N)Cc1ccc(O)cc1)[C@@H](C)O)[C@@H](C)O)[C@@H](C)CC)[C@@H](C)CC)C(C)C)C(=O)N[C@@H](C)C(=O)NCC(=O)NCC(=O)N1CCC[C@H]1C(=O)N[C@@H](CO)C(=O)N[C@@H](CO)C(=O)NCC(=O)N[C@@H](C)C(=O)N1CCC[C@H]1C(=O)N1CCC[C@H]1C(=O)N1CCC[C@H]1C(=O)N[C@@H](CO)C(N)=O,,,"healthy subjects, single ascending dose","5.0 mg, day 29",,serum lipase,25.3 ± 6.5 U/L
CCOC1=C(O)C(=O)O[C@@H]1[C@@H](O)CO,rep main protease,"reporter gene (Gaussia luciferase), inhibitor",,20 µM,,inhibition,1.54%
O=C(CCc1cncc2ccccc12)N1CCc2cccc(-c3cn(CCO)nn3)c21,rep main protease,"enzyme activity, inhibitor",,"5 µM, mean of runs",,inhibition,21.1%
CN(C(=O)n1cnc(-c2ccc[n+]([O-])c2)c1)C1CCCCC1,"strychnine-sensitive glycine receptor, rat",binding,,"10 µM, together with: [3H]strychnine",,inhibition,-4%
C[C@@H]1O[C@@H](O[C@@H]2C(=O)c3c(O)cc(O)cc3O[C@@H]2c2ccc(O)c(O)c2)[C@H](O)[C@H](O)[C@H]1O,rep main protease,"reporter gene (Gaussia luciferase), inhibitor",,20 µM,,inhibition,0.637%
CNC1(c2ccccc2Cl)CCCCC1=O (racemic),muscarinic acetylcholine receptor,"radioligand binding, antagonist, radioligand displacement",,30 µM,,inhibition,-39%
Cc1ncc(C)n2nc(/C=C/c3nc(N4CCCC4)cc(N4CCOCC4)n3)nc12,"Grin1 (Rattus norvegicus, UniProt P35439)",radioligand binding,NMDA glycine site strychnine-insensitive,10 µM,,inhibition,-11%
O=C(CCCCc1ccccc1)CP(=O)(O)O,plsY3,inhibitor,,200 µM,,inhibition,0%
O=C(c1cncc2[nH]cnc12)N1CC[C@]2(CCCCN(C(=O)[C@H]3C[C@@H]4C=CC[C@@H](C4)C3)C2)C1,rep main protease,"enzyme activity, inhibitor",,"5 µM, run 1",,inhibition,10.5%
O=C1[C@H]2CSC3(C(=O)c4ccccc4C3=O)N2C(=O)[C@H]2CSC3(C(=O)c4ccccc4C3=O)N12,rep main protease,"viral replication, Gluc reporter",SARS-CoV-2,20 µM,,inhibition,2.58%
CNC(=O)[C@@H](NC(=O)[C@H](CC(C)C)[C@H](O)C(=O)NO)C(C)(C)C,C2C12,,,"1 µM, together with: TN venom",baseline: venom alone,viability difference,9.39%
Nc1ncnc2c([C@@H]3N[C@H](CO)[C@@H](O)[C@H]3O)c[nH]c12,Marburg marburgvirus,viral RNA in cell lysate,"HeLa, Musoke",100 µM,,inhibition,97.6%
CCCCCCCCCCCCCCCC(=O)NS(=O)(=O)Oc1ccc(OC)cc1,plsY3,inhibitor,,200 µM,,inhibition,100%
CC(C)CC(=O)OC[C@H]1O[C@@](C#N)(c2ccc3c(N)ncnn23)[C@H](O)[C@@H]1O,"CHRNA1/CHRNG/CHRND (Homo sapiens, UniProt P02708+P07510+Q07001)",,,20 µM,,inhibition,-7%
CC(C)(O)C(F)(F)C(=O)N[C@@H](CNc1ccc2nnnn2n1)c1ccc2ccccc2c1,rep main protease,"enzyme activity, inhibitor",,"5 µM, run 1",,inhibition,10.5%
CCCCCCCCCCCC(=O)C(F)(F)P(=O)(O)O,plsY3,inhibitor,,200 µM,,inhibition,100%
CC[C@H](C)[C@H](N)C(=O)N1CCC[C@H]1C(=O)N[C@H](C(=O)O)[C@@H](C)CC,rep main protease,"reporter gene (Gaussia luciferase), inhibitor",,20 µM,,inhibition,0.434%
COc1ccc2[nH]c(C(O)c3ccccc3)c(CCNC(C)=O)c2c1 (stereo not drawn),"RBD, SARS-CoV-2, spike, with ACE2","RBD binding, TR-FRET",,"100 µM, together with: RBD-d2 5 nM",,inhibition,20 to 30%
O=C(N[C@@H]1CC[C@H]2C[C@@H]1CN2C(=O)c1ccc(-c2ccccc2)[nH]1)c1cc(O)cc(=O)[nH]1,rep main protease,"enzyme activity, inhibitor",,"5 µM, run 1",,inhibition,39.1%
CC(=O)c1cc([N+](=O)[O-])c(Sc2ccc(F)cc2F)s1,rep main protease,"viral replication, Gluc reporter",SARS-CoV-2,20 µM,,inhibition,-0.41%

# Repeated from above:
SMILES,tested on,test,test system,conditions,how to read,quantity,result
Cl.O=C(O)/C=C/c1ccc(Cn2ccnc2)cc1,rep main protease,"reporter gene (mKate2), inhibitor",,20 µM,,inhibition,-0.698%
CC1(C)Cc2ccc(C(=O)N3CCCC[C@H](C4CN(C(=O)c5cncc(O)c5)C4)C3)cc2O1,rep main protease,"enzyme activity, inhibitor",,"5 µM, run 1",,inhibition,8.7%
CCCCCCCC/C=C\CCCCCCCC(=O)C(F)(F)P(=O)(O)O,plsY3,inhibitor,,200 µM,,inhibition,68%
O=C(Nc1cnccc1Cl)N1CCN(Cc2ccc3c(c2)OC(F)(F)O3)CC1,"strychnine-sensitive glycine receptor, rat",binding,,"10 µM, together with: [3H]strychnine",,inhibition,1%
